Published values from different studies.
Every numbered part comes from another study and shows a few of its results, in no order. Substitutions count along the parent as printed.

Block 1
Target: Ras GTPase-activating protein-binding protein 1, full length (G3BP1, Homo sapiens, UniProt Q13283)
UniProt Q13283, sequence (whole entry, looked up): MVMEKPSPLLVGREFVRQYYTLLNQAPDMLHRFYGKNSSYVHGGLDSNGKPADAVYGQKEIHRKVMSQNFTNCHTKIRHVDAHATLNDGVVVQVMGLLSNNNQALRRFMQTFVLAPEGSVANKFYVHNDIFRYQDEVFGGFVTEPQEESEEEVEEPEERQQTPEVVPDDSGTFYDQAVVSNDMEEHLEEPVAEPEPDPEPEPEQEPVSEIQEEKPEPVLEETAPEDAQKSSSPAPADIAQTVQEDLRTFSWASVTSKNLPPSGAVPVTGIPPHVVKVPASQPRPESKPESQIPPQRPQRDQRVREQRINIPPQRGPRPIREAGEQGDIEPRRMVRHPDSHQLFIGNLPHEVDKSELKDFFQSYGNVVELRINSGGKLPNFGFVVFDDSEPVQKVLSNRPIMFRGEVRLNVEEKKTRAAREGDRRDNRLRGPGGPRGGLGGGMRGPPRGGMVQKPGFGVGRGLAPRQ
Technique: RNA Bind-n-Seq
Molecule type: RNA
Medium: in vitro
Tested at: 200 nM
Notes: whole 134-nt RNA, ends assumed
With: 150 mM LiCl
Relative to: input library
Direction: higher = stronger binding
Library: 7-deaza-guanosine replaces G
Sequence	log2 enrichment
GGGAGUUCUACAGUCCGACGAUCAGGCCCUGGUGGCAUGCGGGGAGGAAGAGGUGGCCUCAUGGAUCGUGGUGGUCCCGGUGGAAUGUUCAGAGGUGGCCGUGGUGGAGACAGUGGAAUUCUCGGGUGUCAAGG	-0.138
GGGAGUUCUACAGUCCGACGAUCUUGUGAGCUGCAAGCUAGGCUGCAGGCCCAGGAAGAACAGCAUCAGGAAGUCCAGAAGGCAAAAGAAGCAGACAUAGAGAAGCUGAACCAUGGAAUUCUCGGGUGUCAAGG	-2.16
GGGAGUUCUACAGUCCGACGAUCUGUGCUACACAUCGUAUGUACCGAAUCGGGGUUUUUUUGGGGUUUUUUUGGGUUUUUUUGGGGAAAGUAUUAUGUUACGCCGUUCGGAUCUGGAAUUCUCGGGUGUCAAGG	1.91
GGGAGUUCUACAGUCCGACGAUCCACAGACAACACGCACCCACACAGACACAGAGGGAUGGGGUUGGGAUGGGGACAGGGUGCACAGCAGGGCGGGGUAGGACCCCAGCCCCUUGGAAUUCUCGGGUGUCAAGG	-0.393
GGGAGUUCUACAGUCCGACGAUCCAAGUCCUGUGCUACACAUCGUAUGUACCGAAUCGGUUUUUGGAAAAAAAGGUGGAAAGUAUUAUGUUACGCCGUUCGGAUCUGCACUUCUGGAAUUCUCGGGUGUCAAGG	-1.28
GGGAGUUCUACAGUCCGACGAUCGCAGGAAGUAAAAACAAAUGGAAAUGCUUCGGAUAGUGGCAAAGGUGGGGGUUGCUAAGGAAAGGGUGGGAUGGGAGUGGGUAAAGAGUUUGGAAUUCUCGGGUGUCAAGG	0.114
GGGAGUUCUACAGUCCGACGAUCUCCUCAAGUCCUGUGCUACACAUCGUAUGUACCGAAUCGGAAAGGUGGUGGAAAGUAUUAUGUUACGCCGUUCGGAUCUGCACUUCCAGCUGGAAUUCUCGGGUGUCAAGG	-0.124
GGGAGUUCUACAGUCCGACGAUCUCCUGUGCUACACAUCGUAUGUACCGAAUCGGGGCCCCCCGGCCCCCCGGGCCCCCCGGGAAAGUAUUAUGUUACGCCGUUCGGAUCUGCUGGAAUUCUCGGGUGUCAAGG	0.0576
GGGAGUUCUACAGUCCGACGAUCUGGCCCUGGUGGCAUGCGGGGAGGAAGAGGUGGCCUCAUGGAUCGUGGUGGUCCCGGUGGAAUGUUCAGAUGUGGCCGUGGUGGAGACAGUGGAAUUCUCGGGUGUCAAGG	-0.0517
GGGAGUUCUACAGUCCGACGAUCUCAAGUCCUGUGCUACACAUCGUAUGUACCGAAUCGGGUUUUUGGGAGGGAGGGAAAGUAUUAUGUUACGCCGUUCGGAUCUGCACUUCCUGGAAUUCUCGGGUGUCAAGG	-0.892

Block 2
Target: Prothrombin, mature alpha-thrombin (F2, Homo sapiens, UniProt P00734)
Technique: aptamer microarray, sandwich
Molecule type: DNA with 2'F-ANA
Medium: in vitro
Tested at: 200 nM
Notes: whole 15-mer aptamer, many near background
With: Cy3 exosite-II aptamer, 400 nM
Direction: higher = stronger binding
Sequence: GGTTGGTGTGGTTGG
Modification	mean fluorescence intensity [a.u.]
2'F-ANA at 3 4 5 8 9 12 13	122
2'F-ANA at 1 2 7 8 9 10 11 12 14 15	49.8
2'F-ANA at 3 4 5 6 8 10 12 13	49.9
2'F-ANA at 2 3 11 12 13 15	880
2'F-ANA at 4 5 6 7 8 9 13 14	47.2
2'F-ANA at 1 5 6 7 10 11 12 13 15	46.9
2'F-ANA at 1 5 6 7 9 10 11 13 15	47.6
2'F-ANA at 1 6 8 9 12 14	67

Block 3
Target: ABI1, truncated, D143A, DHFR fusion (Arabidopsis thaliana)
Technique: DHFR PCA, deep sequencing
Medium: yeast
Notes: methotrexate growth selection, single substitutions
With: (+)-ABA 0.39 µM
Relative to: wild-type fitted maximum
Direction: higher = stronger binding
Starting sequence: PYL1, truncated, DHFR fusion (Arabidopsis thaliana); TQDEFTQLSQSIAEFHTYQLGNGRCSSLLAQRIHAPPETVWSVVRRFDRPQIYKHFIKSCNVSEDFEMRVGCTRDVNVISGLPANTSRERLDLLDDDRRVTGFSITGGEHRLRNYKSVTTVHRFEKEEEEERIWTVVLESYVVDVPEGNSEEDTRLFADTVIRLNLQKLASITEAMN
Substitution	relative binding score [%]
V143D	0.458
V145W	-9.17
Q7H	42.3
Y18L	-3.21
G148P	-3.09
E147Q	30.1
T101I	76.6

Other studies, line by line
Substance	target	assay	system	setting	scale	measurement	value
PhoQ, residues 284 288 289 292 302 303 ALVSVA	PhoP, residues 12 14 15 18 19 LHHSG (Escherichia coli, UniProt P23836)	Sort-seq, refers to: YFP reporter	E. coli	PhoQ-PhoP variant library, with: 10 µM Mg2+	relative to: high Mg2+ state, higher = stronger signaling	fold induction	18

A few entries again (block 1):
Sequence	log2 enrichment
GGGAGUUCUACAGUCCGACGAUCUGUGCUACACAUCGUAUGUACCGAAUCGGGGUUUUUUUGGGGUUUUUUUGGGUUUUUUUGGGGAAAGUAUUAUGUUACGCCGUUCGGAUCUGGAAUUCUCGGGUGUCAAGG	1.91
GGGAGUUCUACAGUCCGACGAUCCACAGACAACACGCACCCACACAGACACAGAGGGAUGGGGUUGGGAUGGGGACAGGGUGCACAGCAGGGCGGGGUAGGACCCCAGCCCCUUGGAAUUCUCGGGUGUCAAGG	-0.393
